Experimental data from different studies.
Numbers after ± are the reported error.
ABCG2: Broad substrate specificity ATP-binding cassette transporter ABCG2 (ABCG2, Homo sapiens, UniProt Q9UNQ0)
UniProt Q9UNQ0, sequence (whole entry, looked up): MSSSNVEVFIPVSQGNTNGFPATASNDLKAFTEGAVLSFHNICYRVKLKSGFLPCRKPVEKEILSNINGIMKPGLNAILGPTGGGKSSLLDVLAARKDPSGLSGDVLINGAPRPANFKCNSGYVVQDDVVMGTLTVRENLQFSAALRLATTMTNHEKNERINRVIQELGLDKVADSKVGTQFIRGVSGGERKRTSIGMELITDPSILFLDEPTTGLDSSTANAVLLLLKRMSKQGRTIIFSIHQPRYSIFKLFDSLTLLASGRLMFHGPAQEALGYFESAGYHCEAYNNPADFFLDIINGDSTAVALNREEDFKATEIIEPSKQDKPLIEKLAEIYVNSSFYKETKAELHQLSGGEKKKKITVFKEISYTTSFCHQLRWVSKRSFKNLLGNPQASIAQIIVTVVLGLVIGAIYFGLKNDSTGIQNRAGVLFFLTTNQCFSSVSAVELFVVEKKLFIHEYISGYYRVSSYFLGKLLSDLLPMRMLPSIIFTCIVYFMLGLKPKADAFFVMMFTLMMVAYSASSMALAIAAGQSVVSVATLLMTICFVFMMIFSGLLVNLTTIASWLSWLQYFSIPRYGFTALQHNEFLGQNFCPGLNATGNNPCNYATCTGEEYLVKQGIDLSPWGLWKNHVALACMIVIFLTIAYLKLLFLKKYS
UniProt P08912, sequence (whole entry, looked up): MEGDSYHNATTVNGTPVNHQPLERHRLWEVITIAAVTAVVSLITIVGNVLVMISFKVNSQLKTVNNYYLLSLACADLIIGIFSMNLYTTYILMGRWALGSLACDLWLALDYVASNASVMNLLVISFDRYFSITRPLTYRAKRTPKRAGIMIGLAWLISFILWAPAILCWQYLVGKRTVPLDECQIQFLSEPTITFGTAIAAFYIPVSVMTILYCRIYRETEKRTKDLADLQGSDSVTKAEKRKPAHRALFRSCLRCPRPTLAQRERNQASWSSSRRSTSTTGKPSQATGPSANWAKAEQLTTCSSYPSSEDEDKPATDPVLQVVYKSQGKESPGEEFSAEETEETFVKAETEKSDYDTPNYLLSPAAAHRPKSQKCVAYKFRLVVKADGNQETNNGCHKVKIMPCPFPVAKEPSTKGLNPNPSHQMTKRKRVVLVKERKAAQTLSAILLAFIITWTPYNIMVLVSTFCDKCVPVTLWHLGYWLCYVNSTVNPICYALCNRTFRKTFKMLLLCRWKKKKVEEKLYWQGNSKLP
UniProt Q9NPD5, sequence (whole entry, looked up): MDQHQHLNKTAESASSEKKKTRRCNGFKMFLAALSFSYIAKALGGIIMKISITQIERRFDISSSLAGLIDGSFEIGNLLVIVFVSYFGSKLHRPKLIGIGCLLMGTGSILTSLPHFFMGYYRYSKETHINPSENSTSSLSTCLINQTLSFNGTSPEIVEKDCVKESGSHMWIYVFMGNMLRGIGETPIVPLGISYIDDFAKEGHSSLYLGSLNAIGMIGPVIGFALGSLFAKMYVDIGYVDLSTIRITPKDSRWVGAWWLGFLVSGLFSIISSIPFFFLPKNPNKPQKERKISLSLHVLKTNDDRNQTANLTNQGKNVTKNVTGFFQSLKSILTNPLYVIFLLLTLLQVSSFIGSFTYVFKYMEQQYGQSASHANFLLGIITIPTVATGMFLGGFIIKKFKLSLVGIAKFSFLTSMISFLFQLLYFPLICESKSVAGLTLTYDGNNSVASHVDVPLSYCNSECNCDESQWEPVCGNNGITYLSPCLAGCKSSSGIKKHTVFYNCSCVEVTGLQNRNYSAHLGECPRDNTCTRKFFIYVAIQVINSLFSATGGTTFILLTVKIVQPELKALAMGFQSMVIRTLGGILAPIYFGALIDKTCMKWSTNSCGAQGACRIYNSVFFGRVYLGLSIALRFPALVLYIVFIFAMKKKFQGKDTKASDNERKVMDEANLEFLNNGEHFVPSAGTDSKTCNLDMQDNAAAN
UniProt Q86VL8, sequence (whole entry, looked up): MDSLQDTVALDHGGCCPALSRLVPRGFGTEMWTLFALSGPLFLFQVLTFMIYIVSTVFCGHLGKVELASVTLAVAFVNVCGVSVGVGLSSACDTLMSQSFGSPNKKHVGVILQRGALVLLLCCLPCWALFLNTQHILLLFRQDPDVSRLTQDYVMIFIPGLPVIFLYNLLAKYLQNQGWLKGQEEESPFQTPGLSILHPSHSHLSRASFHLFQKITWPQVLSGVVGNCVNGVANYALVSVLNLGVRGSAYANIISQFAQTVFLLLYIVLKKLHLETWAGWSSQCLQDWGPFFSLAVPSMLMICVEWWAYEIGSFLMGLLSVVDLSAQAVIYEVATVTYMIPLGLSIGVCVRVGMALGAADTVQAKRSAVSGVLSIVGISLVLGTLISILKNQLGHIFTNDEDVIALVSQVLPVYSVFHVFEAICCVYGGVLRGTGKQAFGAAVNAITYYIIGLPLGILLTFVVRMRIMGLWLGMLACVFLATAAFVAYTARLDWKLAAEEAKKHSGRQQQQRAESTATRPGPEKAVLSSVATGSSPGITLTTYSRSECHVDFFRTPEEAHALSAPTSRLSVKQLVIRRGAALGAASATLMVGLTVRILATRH
UniProt Q13418, sequence (whole entry, looked up): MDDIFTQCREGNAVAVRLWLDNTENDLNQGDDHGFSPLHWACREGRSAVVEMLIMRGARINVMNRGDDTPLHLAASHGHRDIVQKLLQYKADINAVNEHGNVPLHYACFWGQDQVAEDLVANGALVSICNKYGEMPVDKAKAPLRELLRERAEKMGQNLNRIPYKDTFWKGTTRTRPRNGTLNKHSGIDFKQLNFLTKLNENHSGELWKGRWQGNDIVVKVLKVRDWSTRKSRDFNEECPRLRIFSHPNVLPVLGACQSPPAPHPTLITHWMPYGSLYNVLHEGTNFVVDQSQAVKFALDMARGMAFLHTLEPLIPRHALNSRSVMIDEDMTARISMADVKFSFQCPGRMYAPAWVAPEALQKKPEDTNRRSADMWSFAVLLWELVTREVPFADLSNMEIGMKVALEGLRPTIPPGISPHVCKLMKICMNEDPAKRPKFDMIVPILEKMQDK

SMILES	tested on	assay	test system	setting	how to read	quantity	value
N=C(N)NCCC[C@H](NC(=O)[C@@H](Cc1ccccc1)NC(=O)[C@H](Cc1c[nH]cn1)NC(=O)CCCc1ccccc1)C(=O)N[C@@H](Cc1c[nH]c2ccccc12)C(=O)NCC(=O)N[C@@H](CCCCNC(=O)CCCCCNC(=O)CN1CCN(CC(=O)O)CCN(CC(=O)O)CCN(CC(=O)O)CC1)C(N)=O [actinium-225 labelled]	–	five-compartment model fit	SCID mice, A-375 and A-375/MC1R xenografts	–	–	kidney uptake rate constant (ki)	0.0034 h⁻¹
CCC(CC)COC(=O)[C@H](C)N[P@](=O)(OC[C@H]1O[C@@](C#N)(c2ccc3c(N)ncnn23)[C@H](O)[C@@H]1O)Oc1ccccc1	–	–	human	intravenous, 100 mg	–	participants with adverse events	22.2%
COc1ccc2c(Sc3ccccc3)c(C(=O)NCCCN3CCCCC3)[nH]c2c1	Vero-E6	CellTiter-Glo ATP	–	72 h, second round 5-point	reference: DMSO 0%, hyamine -100%, more negative, more toxic	maximum response	-14.3%
COc1cccc(-c2n[nH]c(SCc3ccccn3)n2)c1OC	Salmonella typhimurium	Ames test, plate incorporation	TA1537	1.0 mg/plate, without S9	–	revertant colonies per plate	5
CCN(CC)C(=O)[C@@H]1C=C2c3cccc4[nH]cc(c34)C[C@H]2N(C)C1	–	item: numbness of hands and feet	healthy volunteers	dose not given, 0 to 12 h	reference: placebo, direction not given	List of Complaints score	2
COc1cc2c(c(OC)c1OC)-c1ccc(OC)c(=O)cc1[C@@H](NC(C)=O)CC2	Solute carrier organic anion transporter family member 1B3 (SLCO1B3, Homo sapiens, UniProt Q9NPD5)	transport, inhibitor	transiently transfected cells	100 µM, 10 (unit not given), added: CCK-8	–	inhibition	66.2%
CC(C)C[C@@H](NC(=O)[C@H](N)CCCCN)C(=O)N1CCC[C@@H]1C(=O)N[C@H](Cc1ccccc1)C(=O)N[C@H](Cc1ccccc1)C(N)=O	NGF-differentiated PC-12 neurons	–	–	20 µM, 24 h	reference: untreated	viability	100%
CC[C@H](C)[C@@H]1NC(=O)[C@@H]2CCCN2C(=O)[C@H](CC(C)C)NC(=O)[C@H](CC(C)C)NC(=O)CNC(=O)[C@@H](NC(=O)[C@@H](NC(=O)[C@H](CC(=O)O)NC(=O)CNC(=O)[C@@H](NC(=O)[C@H](C)NC(=O)CNC(=O)[C@H](CCCCN)NC(=O)[C@H](CC(C)C)NC(=O)[C@H](CC(C)C)NC(=O)[C@H](CCCCN)NC(=O)CNC(=O)[C@@H](NC(=O)[C@@H](N)CC(C)C)C(C)C)C(C)C)C(C)C)CSSC[C@@H](C(=O)O)NC1=O	–	RNA-seq, item: Smtnl2	mouse, traumatic brain injury model, frontal cortex and hippocampus	dose not given	reference: TBI alone	log2 fold change	-1.85
COc1cc(CCC[P+](c2ccccc2)(c2ccccc2)c2ccccc2)c(OC)c2c1OCO2.[I-]	T47D	SRB	–	–	–	GI50	-6.38 log M
CN/C(=N\[N+](=O)[O-])NCc1cnc(Cl)s1	–	–	soil	0 days, nominal 0.37	–	recovery	65%
CCCN(CCC)CCNC(=O)c1cc(-c2ccc(Br)s2)nc2ccccc12	Vero-E6	CellTiter-Glo ATP	–	concentration not given, 72 h, second round 5-point	reference: DMSO 0%, hyamine -100%, more negative, more toxic	cytotoxicity efficacy	0%
CCCC(C(=O)c1ccc(O)c(OC)c1)N1CCCC1 (stereo not shown)	–	–	rat	subcutaneous, 1 mg/kg MDPV, 40 min	–	brain-to-plasma ratio	0.7 ± 0.3
CC(C)C[C@@H](NC(=O)[C@H](N)CCCCN)C(=O)N[C@@H](C(=O)N[C@H](Cc1ccccc1)C(=O)N[C@H](Cc1ccccc1)C(N)=O)C(C)C	NGF-differentiated PC-12 neurons	–	–	40 µM, 24 h	reference: untreated	viability	100%
[Cl-].[Cl-].[Pt+2].[Ru+2].c1ccc(-c2nc3ccccc3nc2-c2ccccn2)nc1.c1cnc2c(c1)ccc1cccnc12.c1cnc2c(c1)ccc1cccnc12	Danio rerio	–	embryos	15 µM, 0 h	–	survival rate	100%
CC(C)[C@@H]1NC(=O)[C@H](Cc2ccccc2)NC(=O)[C@@H]2NC(=O)[C@H](Cc3ccccc3)NC(=O)[C@@H]3CCCN3C(=O)CNC(=O)[C@H](Cc3ccccc3)NC(=O)[C@@H]3CNCCCC[C@@H](C(=O)O)NC(=O)[C@@H]4NC(=O)[C@H](CC(N)=O)NC(=O)CNC(=O)[C@H]([C@@H](O)C(=O)O)NC(=O)[C@H](CSC[C@@H](NC(=O)[C@H](CCC(N)=O)NC(=O)[C@H](CCCCNC(=O)c5ccc(NN)nc5)NC(=O)[C@@H](N)CS[C@H]4C)C(=O)N[C@@H](CS[C@H]2C)C(=O)N3)NC1=O [technetium-99m labelled]	–	–	rat, saline control, kidneys	intravenous, 2 h after tracer, tracer 24 h after reperfusion	–	tissue uptake	5.94 ± 0.49 %ID/g
CCC(CC)COC(=O)[C@H](C)N[P@](=O)(OC[C@H]1O[C@@](C#N)(c2ccc3c(N)ncnn23)[C@H](O)[C@@H]1O)Oc1ccccc1	ABCG2	transport, inhibitor	–	100 µM, 5 (unit not given), pH 7, added: CCK-8	–	inhibition	53.8%
CO[C@H]1C[C@@H]2CC[C@@H](C)[C@@](O)(O2)C(=O)C(=O)N2CCCC[C@H]2C(=O)O[C@H]([C@H](C)C[C@@H]2CC[C@@H](OC(=O)NCCOCCOCCOCCOCCOCCOCCOCCOCCC(=O)N3CCc4cc(Cn5nc(-c6ccc7oc(N)nc7c6)c6c(N)ncnc65)ccc4C3)[C@H](OC)C2)C[C@@H](O)[C@H](C)/C=C(\C)[C@@H](O)[C@@H](OC)C(=O)[C@H](C)C[C@H](C)/C=C/C=C/C=C/1C	–	phase 1 dose escalation, item: rash	advanced solid tumour patients	intravenous, 10 mg weekly, grade ≥3	–	TRAE incidence	0%
CCCC(C(=O)c1ccc2c(c1)OCO2)N1CCCC1.Cl (racemic)	–	LC-MS/MS	rat, trunk blood plasma	subcutaneous, 4 mg/kg, 40 min	–	plasma concentration	616 ± 27.1 ng/mL
C[C@H]1CN(c2n[nH]c3nc(N[C@H]4CC[C@H](NS(=O)(=O)CCC(F)(F)F)CC4)ncc23)CCO1	Scaffold protein ILK (ILK, Homo sapiens, UniProt Q13418)	inhibitor, Kinobeads competition profiling	–	0.032 µM	reference: vehicle	relative abundance	1.04
COc1cc2c(Oc3ccc4[nH]c(C)cc4c3F)ccnc2cc1OCC1(N)CC1	–	–	paediatric recurrent refractory sarcoma	12 mg	–	grade 3 sinus bradycardia	0%
CC(C)C[C@@H]1NC(=O)[C@H](CC(C)C)NC(=O)[C@H](Cc2c[nH]c3ccccc23)NC(=O)[C@H](CO)NC(=O)[C@H](Cc2c[nH]c3ccccc23)NC(=O)[C@@H]2CCCN2C(=O)[C@H](CC(C)C)NC(=O)[C@H](Cc2c[nH]cn2)NC(=O)[C@@H]2CCCN2C(=O)[C@H](CC(N)=O)NC(=O)[C@H](C)NC(=O)[C@H](Cc2ccc(O)cc2)NC(=O)[C@H](CS)NC(=O)[C@H](CCCCNC(=O)CN2CCN(CC(=O)O)CCN(CC(=O)O)CCN(CC(=O)O)CC2)NC1=O [lutetium-177 labelled]	–	–	Balb/c mouse, female, 4T1 tumour, spleen	intravenous, 3.7 MBq, 24 h	–	tissue uptake	0.04 %ID
O=c1ccc2ccccc2o1	NHEK	caspase-3/7 activity	–	concentration not given, 1 h	–	chance response	3.4%

SMILES	tested on	assay	test system	setting	how to read	quantity	value
C[C@H]1CN(N=O)CCc2ccc(Cl)cc21	TK6	–	–	2.5 µM, 4 h, added: hamster liver S9	reference: vehicle	relative survival	87.6%
C[C@]1(CO)Cc2ncn(-c3ccc(C#N)c(Cl)c3)c2C(=O)O1	–	–	healthy Japanese adults, plasma	40 mg once daily, multiple dose	–	Tmax at steady state	1 h
Cc1ccc([C@@H]2O[C@H](CO)[C@@H](O)[C@H](O)[C@H]2O)cc1Cc1ccc(-c2ccc(F)cc2)s1	human coronavirus OC43	virus-induced cell killing	MRC-5	maximum over 10 doses	–	maximum inhibition	0%
CC(=O)N1CCC(C(=O)N2CCN3C(=O)c4cc(-c5ccccc5)ccc4NC(=O)C3C2)CC1 (stereo not shown)	Salmonella typhimurium	–	TA1537	50 µg/plate, added: rat liver S9	–	revertants per plate	16.5
CCCCN(C)CCCNC(=O)c1ccc2nc(N3CCCCC3)sc2c1	Vero-E6	CellTiter-Glo ATP	–	72 h, retest 8-point duplicates	reference: DMSO 0%, hyamine -100%, more negative, more toxic	maximum response	-8.01%
CC(C)C[C@@H](NC(=O)[C@H](N)CCCCN)C(=O)N[C@H](CC(C)C)C(=O)N[C@H](Cc1ccccc1)C(=O)N[C@H](Cc1ccccc1)C(N)=O	NGF-differentiated PC-12 neurons	–	–	5 µM, 24 h	reference: untreated	viability	100%
Cc1ccc(NC(=O)c2ccc(CN3CCN(C)CC3)cc2)cc1Nc1nccc(-c2cccnc2)n1	human coronavirus OC43	virus-induced cell killing	MRC-5	maximum over 10 doses	–	maximum inhibition	1.36%
CC(=O)c1c(C)c2cnc(Nc3ccc(C4CCN(CCS(C)(=O)=O)CC4)cn3)nc2n(C2CCCC2)c1=O	–	–	HR+/HER2- advanced breast cancer patients	oral, 100 mg bid, all grades, monotherapy arm	–	patients with any TEAE	100%
C[C@@H](O)[C@@H](CO)NC(=O)[C@@H](CCCNC(=N)N)NC(=O)[C@@H]1CCCN1C(=O)[C@@H]1CSSC[C@H](NC(=O)[C@H](Cc2ccccc2)NC(=O)CN2CCN(CC(=O)O)CCN(CC(=O)O)CCN(CC(=O)O)CC2)C(=O)N[C@@H](Cc2ccc(O)cc2)C(=O)N[C@@H](Cc2ccccc2)C(=O)N[C@@H](CCC(N)=O)C(=O)N[C@@H](CC(N)=O)C(=O)N1 [gallium-68 labelled]	–	–	Wistar rat, pancreas	intravenous, 8 MBq, 60 min, group mean	–	tissue uptake	0.14 %ID/g
O=C1c2c(O)c(=O)ccn2N([C@@H]2c3ccccc3SCc3c2ccc(F)c3F)[C@@H]2COCCN12	–	–	BALB/c mouse	subcutaneous, 1 mg/kg q24h	–	trough concentration	0.751 ng/mL
CCS(=O)(=O)N1CC(CC#N)(n2cc(-c3ncnc4[nH]ccc34)cn2)C1	Multidrug and toxin extrusion protein 2 (SLC47A2, Homo sapiens, UniProt Q86VL8)	transport, inhibitor	–	50 µM, added: thiamine	–	inhibition	88%
COc1cccc(CNC(=O)C2CCN(Cc3cc4ccccc4n3Cc3ccccc3)CC2)c1OC	Vero-E6	CellTiter-Glo ATP	–	72 h, second round 5-point	reference: DMSO 0%, hyamine -100%, more negative, more toxic	maximum response	-11.5%
COc1c(CCC[P+](c2ccccc2)(c2ccccc2)c2ccccc2)cc2c(c1OC)OCO2.[I-]	OVCAR-4	SRB	–	–	–	GI50	-5.8 log M
Cc1cc(C)cc(-c2ccc(CN3CCCC3C(=O)NCc3cccc(F)c3)cc2)c1 (stereo not shown)	Vero-E6	CellTiter-Glo ATP	–	72 h, retest 8-point duplicates	reference: DMSO 0%, hyamine -100%, more negative, more toxic	maximum response	-26.7%
CC[C@H]1OC(=O)[C@H](C)[C@@H](O[C@H]2C[C@@](C)(OC)[C@@H](O)[C@H](C)O2)[C@H](C)[C@@H](O[C@@H]2O[C@H](C)C[C@H](N(C)C)[C@H]2O)[C@](C)(O)C[C@@H](C)CN(C)[C@H](C)[C@@H](O)[C@]1(C)O	ABCG2	transport, inhibitor	–	50 µM, 5 (unit not given), pH 7, added: CCK-8	–	inhibition	13.7%
CCN(CC)CCNC(=O)c1[nH]c2ccccc2c1Sc1ccc(Cl)cc1	Vero-E6	CellTiter-Glo ATP	–	concentration not given, 72 h, retest 8-point duplicates	reference: DMSO 0%, hyamine -100%, more negative, more toxic	cytotoxicity efficacy	0%
COc1cc(Nc2ncc(F)c(Nc3ccc4c(n3)NC(=O)C(C)(C)O4)n2)cc(OC)c1OC	Muscarinic acetylcholine receptor M5 (CHRM5, Homo sapiens, UniProt P08912)	–	–	–	–	IC50	> 10 µM
COc1ccc(Nc2cc(C(=O)NCCCN3CCN(c4ccc(OC)cc4)CC3)c3ccccc3n2)cc1	Vero-E6	CellTiter-Glo ATP	–	concentration not given, 72 h, second round 5-point	reference: DMSO 0%, hyamine -100%, more negative, more toxic	cytotoxicity efficacy	-20.6%
CN1CC[C@@H](c2c(O)cc(O)c3c(=O)cc(-c4ccc(C(F)(F)F)cc4Cl)oc23)[C@@H]1CO	–	item: Syncope	relapsed or refractory haematological malignancies	oral, dose not given, grade 3 to 4, all arms	–	patients with adverse event	5%
CC[C@H](C)[C@H](NC(=O)[C@H](Cc1ccccc1)NC(=O)[C@H](CCC(=O)O)NC(=O)[C@H](CCCNC(=N)N)NC(=O)[C@H](C)NC(=O)[C@H](C)NC(=O)[C@H](CCC(N)=O)NC(=O)[C@H](CCC(=O)O)NC(=O)[C@H](CCC(=O)O)NC(=O)[C@H](CC(C)C)NC(=O)[C@H](Cc1ccc(O)cc1)NC(=O)[C@H](CO)NC(=O)[C@H](CO)NC(=O)[C@@H](NC(=O)[C@H](CC(=O)O)NC(=O)[C@H](CO)NC(=O)[C@@H](NC(=O)[C@H](Cc1ccccc1)NC(=O)[C@@H](NC(=O)CNC(=O)[C@H](CCC(=O)O)NC(=O)[C@H](C)NC(=O)CCc1c[nH]cn1)[C@@H](C)O)[C@@H](C)O)C(C)C)C(=O)N[C@@H](C)C(=O)N[C@@H](Cc1c[nH]c2ccccc12)C(=O)N[C@@H](CC(C)C)C(=O)N[C@H](C(=O)N[C@@H](CCCNC(=N)N)C(=O)NCC(=O)N[C@@H](CCCNC(=N)N)C(=O)N[C@@H](CCCCNC(=O)COCCOCCNC(=O)COCCOCCNC(=O)CC[C@H](NC(=O)CCCCCCCCCCCCCCCCC(=O)O)C(=O)O)C(=O)NCC(=O)NCC(=O)N[C@@H](CO)C(=O)N[C@@H](CCCCNc1c(NCCCCCN(O)C(=O)CCC(=O)NCCCCCN(O)C(=O)CCC(=O)NCCCCCN(O)C(C)=O)c(=O)c1=O)C(=O)O)C(C)C [zirconium-89 labelled]	–	gamma counting	rat, stomach-duodenum	intravenous, 3 nmol/kg, 72 h	–	tissue uptake	0.44 %ID/g
COc1ccc(Nc2cc(C(=O)NCCCN(C)Cc3ccccc3)c3ccccc3n2)cc1	Vero-E6	CellTiter-Glo ATP	–	72 h, second round 5-point	reference: DMSO 0%, hyamine -100%, more negative, more toxic	maximum response	-14.1%
